Measured values from different studies.
± marks the error that the study gave.

SMILES	tested on	test	system	setting	measurement	value
CCCCCCCCCC(=O)N[C@@H](Cc1c[nH]c2ccccc12)C(=O)N[C@H](CC(N)=O)C(=O)N[C@@H](CC(=O)O)C(=O)N[C@@H]1C(=O)NCC(=O)N[C@@H](CCCNC(=O)CCC(=O)N2Cc3ccccc3-c3c(nnn3CCC[C@H](NC(=O)CCCCC[N+]3=C(C=CC4=CC(=CC=C5N(C)c6ccccc6C5(C)C)CCC4)C(C)(C)c4ccccc43)C(=O)NCCCCNC(=O)CCC(=O)N3Cc4ccccc4-c4c(nnn4CCOCCOCCOCCNC(=O)CN4CCN(CC(=O)NCCNC(=O)c5cccc(O)c5O)CCN(CC(=O)NCCNC(=O)c5cccc(O)c5O)CCN(CC(=O)NCCNC(=O)c5cccc(O)c5O)CC4)-c4ccccc43)-c3ccccc32)C(=O)N[C@@H](CC(=O)O)C(=O)N[C@H](C)C(=O)N[C@@H](CC(=O)O)C(=O)NCC(=O)N[C@H](CO)C(=O)N[C@@H]([C@H](C)CC(=O)O)C(=O)N[C@@H](CC(=O)c2ccccc2N)C(=O)O[C@@H]1C		rapid equilibrium dialysis	human plasma	1 µM, 2 h, 37 °C	fraction unbound	0.503
CC[C@H](C)[C@H](NC(=O)[C@H](Cc1ccccc1)NC(=O)[C@H](CCC(=O)O)NC(=O)[C@H](CCCNC(=N)N)NC(=O)[C@H](C)NC(=O)[C@H](C)NC(=O)[C@H](CCC(N)=O)NC(=O)[C@H](CCC(=O)O)NC(=O)[C@H](CCC(=O)O)NC(=O)[C@H](CC(C)C)NC(=O)[C@H](Cc1ccc(O)cc1)NC(=O)[C@H](CO)NC(=O)[C@H](CO)NC(=O)[C@@H](NC(=O)[C@H](CC(=O)O)NC(=O)[C@H](CO)NC(=O)[C@@H](NC(=O)[C@H](Cc1ccccc1)NC(=O)[C@@H](NC(=O)CNC(=O)[C@H](CCC(=O)O)NC(=O)[C@H](C)NC(=O)CCc1c[nH]cn1)[C@@H](C)O)[C@@H](C)O)C(C)C)C(=O)N[C@@H](C)C(=O)N[C@@H](Cc1c[nH]c2ccccc12)C(=O)N[C@@H](CC(C)C)C(=O)N[C@H](C(=O)N[C@@H](CCCNC(=N)N)C(=O)NCC(=O)N[C@@H](CCCNC(=N)N)C(=O)N[C@@H](CCCCNC(=O)COCCOCCNC(=O)COCCOCCNC(=O)CC[C@H](NC(=O)CCCCCCCCCCCCCCCCC(=O)O)C(=O)O)C(=O)NCC(=O)NCC(=O)N[C@@H](CO)C(=O)N[C@@H](CCCCNc1c(NCCCCCN(O)C(=O)CCC(=O)NCCCCCN(O)C(=O)CCC(=O)NCCCCCN(O)C(C)=O)c(=O)c1=O)C(=O)O)C(C)C [zirconium-89 labelled]			rat, heart	sc, 3 nmol/kg, 4 h, ex vivo	tissue uptake	0.2 %ID/g
CC(C)C[C@H](NC(=O)C[C@H](O)[C@H](CC(C)C)NC(=O)[C@H](Cc1c[nH]cn1)NC(=O)CNC(=O)[C@@H](NC(=O)[C@H](C)NC(=O)[C@H](Cc1c[nH]c2ccccc12)NC(=O)[C@H](CCC(N)=O)NC(=O)[C@@H](Cc1ccccc1)NC(=O)CCNC(=O)CCSc1nnc(NCCC(=O)NCCC(=O)NCCCC[C@H](NC(=O)N[C@@H](CCC(=O)O)C(=O)O)C(=O)O)c2c1CCC1C(CC2)C1COC(=O)NCCNC(=O)CC[C@H](C(=O)O)N1CCN(CC(=O)O)CCN(CC(=O)O)CC1)C(C)C)C(N)=O (some centres unmarked) [gallium-68 labelled]			athymic NMRI nude mouse, liver	intravenous, 533 pmol, 2 h	tissue uptake	0.12 %ID/g
C[C@@H](O)[C@H](NC(=O)[C@@H]1CSSC[C@H](NC(=O)[C@@H](Cc2ccccc2)NC(=O)CN2CCN(CC(=O)[O-])CCN(CC(=O)[O-])CCN(CC(=O)[O-])CC2)C(=O)N[C@@H](Cc2ccc(O)cc2)C(=O)N[C@H](Cc2c[nH]c3ccccc23)C(=O)N[C@@H](CCCCN)C(=O)N[C@@H]([C@@H](C)O)C(=O)N1)C(=O)O.[177Lu+3]	MEC1 treated with 200 µM zebularine	gamma counter	serum-free RPMI	120 min, 37 °C	uptake	1.05%
CC(C)C[C@@H]1NC(=O)[C@H](CC(C)C)NC(=O)[C@H](Cc2c[nH]c3ccccc23)NC(=O)[C@H](CO)NC(=O)[C@H](Cc2c[nH]c3ccccc23)NC(=O)[C@@H]2CCCN2C(=O)[C@H](CC(C)C)NC(=O)[C@H](Cc2c[nH]cn2)NC(=O)[C@@H]2CCCN2C(=O)[C@H](CC(N)=O)NC(=O)[C@H](C)NC(=O)[C@H](Cc2ccc(O)cc2)NC(=O)[C@H](CS)NC(=O)[C@H](CCCCNC(=O)CN2CCN(CC(=O)O)CCN(CC(=O)O)CCN(CC(=O)O)CC2)NC1=O [lutetium-177 labelled]		OLINDA dosimetry	BALB/c mice, heart	37 MBq, 7 days	total nuclear transformations	26.7 MBq-s
O=C(O)C[C@H](NC(=O)[C@H](CC(=O)O)NC(=O)[C@H](CC(=O)O)NC(=O)[C@H](CC(=O)O)NC(=O)[C@H](CC(=O)O)NC(=O)[C@H](CC(=O)O)NC(=O)[C@H](CC(=O)O)NC(=O)[C@H](CC(=O)O)NC(=O)[C@H](CC(=O)O)NC(=O)[C@H](CC(=O)O)NC(=O)[C@H](CC(=O)O)NC(=O)[C@H](CCCCNC(=O)c1ccc(C(=O)NCCOCCOB2BBBBBB3BBBB3B2)cc1)NC(=O)CN1CCN(CC(=O)O)CCN(CC(=O)O)CCN(CC(=O)O)CC1)C(=O)O [gallium-67 labelled]		gamma counting	ddY mouse, male, 6 weeks old, spleen	intravenous, 37 kBq, 10 min	tissue uptake	1.04 %ID/g
CC(C)C[C@H](NC(=O)[C@H](C)NC(=O)[C@@H](NC(=O)[C@H](C)NC(=O)[C@H](CC(C)C)NC(=O)[C@H](CC(=O)O)NC(=O)[C@@H]1CCCN1C(=O)[C@@H]1CCCN1C(=O)[C@H](CC(=O)O)NC(=O)[C@H](Cc1ccccc1)NC(=O)[C@H](Cc1c[nH]c2ccccc12)NC(=O)[C@H](CC(C)C)NC(=O)[C@H](C)NC(=O)[C@@H](NC(=O)[C@H](C)NC(=O)[C@H](CC(C)C)NC(=O)[C@H](CC(=O)O)NC(=O)COCC(=O)NCCCOCCOCCOCCCNC(=O)COCC(=O)NCCCOCCOCCOCCCNC(=O)CCC(C(=O)O)N1CCN(CC(=O)O)CCN(CC(=O)O)CC1)C(C)C)C(C)C)C(=O)N[C@@H](Cc1c[nH]c2ccccc12)C(=O)N[C@@H](Cc1ccccc1)C(=O)N[C@@H](CC(=O)O)C(N)=O (some centres unmarked) [gallium-68 labelled]		radio-HPLC	healthy C57BL/6 mice, plasma	intravenous, 4 MBq, 60 min, ex vivo analysis	intact parent in plasma	41 ± 14%
C[C@@H](O)[C@@H](CO)NC(=O)[C@@H](CCCNC(=N)N)NC(=O)[C@@H]1CCCN1C(=O)[C@@H]1CSSC[C@H](NC(=O)[C@H](Cc2ccccc2)NC(=O)CN2CCN(CC(=O)O)CCN(CC(=O)O)CCN(CC(=O)O)CC2)C(=O)N[C@@H](Cc2ccc(O)cc2)C(=O)N[C@@H](Cc2ccccc2)C(=O)N[C@@H](CCC(N)=O)C(=O)N[C@@H](CC(N)=O)C(=O)N1 [gallium-68 labelled]			healthy Wistar rat, large intestine	intravenous, 8 MBq, 30 min, individual animals	tissue uptake	0.23 %ID/g

Repeated from above:
SMILES	tested on	test	system	setting	measurement	value
CC(C)C[C@H](NC(=O)C[C@H](O)[C@H](CC(C)C)NC(=O)[C@H](Cc1c[nH]cn1)NC(=O)CNC(=O)[C@@H](NC(=O)[C@H](C)NC(=O)[C@H](Cc1c[nH]c2ccccc12)NC(=O)[C@H](CCC(N)=O)NC(=O)[C@@H](Cc1ccccc1)NC(=O)CCNC(=O)CCSc1nnc(NCCC(=O)NCCC(=O)NCCCC[C@H](NC(=O)N[C@@H](CCC(=O)O)C(=O)O)C(=O)O)c2c1CCC1C(CC2)C1COC(=O)NCCNC(=O)CC[C@H](C(=O)O)N1CCN(CC(=O)O)CCN(CC(=O)O)CC1)C(C)C)C(N)=O (some centres unmarked) [gallium-68 labelled]			athymic NMRI nude mouse, liver	intravenous, 533 pmol, 2 h	tissue uptake	0.12 %ID/g
